Published values collected from several papers.
Parts stem from different laboratories: compare values within a part only.

Sample 1 — method: RNA Bind-n-Seq; form: RNA; medium: in vitro; concentration: 365 nM; baseline: no-protein control; reading: higher = stronger binding; endpoint: RBNS enrichment (R)
Target: RNA binding protein fox-1 homolog 2, RRM domain, GST-SBP tag (RBFOX2, Homo sapiens, UniProt O43251-10, residues 100-194)
Setting: natural RNA segment, single round, ends assumed
Shared flanks, not repeated: GGGAGUUCUACAGUCCGACGAUC … UGGAAUUCUCGGGUGCCAA
Target sequence (chain): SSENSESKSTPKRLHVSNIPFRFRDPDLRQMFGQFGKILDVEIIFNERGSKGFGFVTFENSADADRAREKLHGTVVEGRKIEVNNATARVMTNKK
AGGACUCCAGUGUGACCCUGCACUGAGAGGACCAAAGCGUCAUUGCAGUCUUCUCUCCACCCUGUACCCCGGAGUCCUGAUUGGAUGUCUGCAGAGGCAGAUGGGGCUCC: 0.382
GAAAAAAUACUUGUCUUAUGUUGUUUUAGCAAGGGAGUUCAGCCAAGUGACAGGAAAGAUUCCCUGGUCUGCAUCUAAACAUUAGUCAACAGAAGGAAAAGGCUCUUUUC: 1.05
CAAAGAGAAGCAAUACACAGUAUGUCUGCUUUAGCCUUCUUUUAUUUAUCUCAUCUGCAGAUGUUGAGAAUGUAUGCAUUAUGUAAAAUGCUUGUUUUUUUAUCCCUGUU: 0.509
UAUCAGAUUGGUAACUUAUCGCCUGUUGUCCAGAUUGGCACGAACCUUUUCUUCCACUUAAUUAUUUUUUUAGGAUUUUGCUUUGAUUGUGUUUAUGUCAUGGGUCAUUU: 0.431
AGGACCAAACAGAUUCAAGGAGCAUCAUUUAAGCUAAGAAGAGACCUAAGUGAUGAAACUAGCUGUAAGAAUGUAACAGGGGUUGUGUUUGAAAUAUUUAUAUUCCCAUC: 1.42
GCAACUAAAAAUAUUACAGUUUAAUAAUCAAUUAAACCAACCAACAAUAAGCACUACACAUCUGCCACCAACAAUGUUGUUUGCAUUUACCUUACCAAUAUUAAUCCCAG: 0.78
AGAGACAGGACCAGAGAGGCGAUGUCACACAGCCAGUGAUGUCAGGACAUAAAUUCAGAGUGGCUGGCCCUGAAUAAUGCCAGGCUGGGCAGCGAGAGGACAGGCUAUGG: 1.06
CAUGCCCACCUGUAUUCCCUGUCCCCUUCCUUCAUGAAGGCAUCUCCAGGCAAGGAAAACUGAAGUCAUUGGCCCGAUACAAAACAUUUCCUGCAACGAAGGAGGUGGUG: 0.392
GACUCUGAUUACAGUCUGACCUAGAAAGACCAAAGAGGGGUAUGCUCAUGACAUCUGUAAAUGCUGCUGUGUCUGGAAAGAAAGUCUUUAAAUCACUGGUGAAAGUGGCA: 1.25
CUCAAGAUUGCAACAGGGAGCAGAACUUGACACUUACAUUUUUUUAAACCUGAUUUUUGUUUUCAAAUAAGAAUGUAAGCAUUUUACUUAAACUGUACUGUUUGCAAGUA: 0.526
CCUCAGGAGCGUCAGGAUCAUUUUCAACUCUGGUUAGGCCUCCUACCUGGGGAGGCCAGGUCACUGCACUGGGAGGUCCUGGCUGCUGCGAAGCUGGAGGAGGACUGCGU: 0.268
AGAAAAAAACAAAAAACACGUUUGAUACUUUGUACAUCAUAUGCAUCUUAUUUAAAGGGAUACUUUUGUAAAAGUGAAACCUUGUAUAAAGAAAGAGCAGCCUUUGUUAA: 2.04

Sample 2 — method: RNA Bind-n-Seq; form: RNA; medium: in vitro; concentration: 200 nM; setting: whole 134-nt RNA, ends assumed; with: 150 mM KCl; baseline: input library; reading: higher = stronger binding; endpoint: log2 enrichment
Target: Fragile X messenger ribonucleoprotein 1, C-terminal low-complexity region (Fmr1, Mus musculus, UniProt P35922)
Shared flanks, not repeated: GGGAGUUCUACAGUCCGACGAUC … UGGAAUUCUCGGGUGUCAAGG
CUCAAGUCCUGUGCUACACAUCGUAUGUACCGAAUCGGGGUGGUGGGGUGGGGAAAGUAUUAUGUUACGCCGUUCGGAUCUGCACUUCCA: 0.796
AGUCCUGUGCUACACAUCGUAUGUACCGAAUCGGGAAAAAGGAAAAAGGGAAAAAGGAAAGUAUUAUGUUACGCCGUUCGGAUCUGCACU: -0.652
CCUGUGCUACACAUCGUAUGUACCGAAUCGGGUUUUUUGGGGUUUUUUGGGUUUUUUGGGGAAAGUAUUAUGUUACGCCGUUCGGAUCUG: -0.543
ACCAUGCAGGUGGGCAUCUUCGGGAAGUGGGGCAAGGGGGGGAUAGGGAGGGGGGUAACACUUUGGGAACAGGUGGUCCCAGGUCGUUUC: 0.871
CAAGUCCUGUGCUACACAUCGUAUGUACCGAAUCGGUUUUGGUUUUGGUUUUGGGGAAAGUAUUAUGUUACGCCGUUCGGAUCUGCACUU: -0.557
AAGUCCUGUGCUACACAUCGUAUGUACCGAAUCGGGAAAAGGGGAAAAGGAAAAGGAAAGUAUUAUGUUACGCCGUUCGGAUCUGCACUU: -0.636
CCUGUGCUACACAUCGUAUGUACCGAAUCGGGGAAAAAAAGGAAAAAAAGGAAAAAAAGGAAAGUAUUAUGUUACGCCGUUCGGAUCUGC: -0.43
CAAGUCCUGUGCUACACAUCGUAUGUACCGAAUCGGAAAAAGGAAAAAAAGGAGGAAAGUAUUAUGUUACGCCGUUCGGAUCUGCACUUC: -0.759
CUCAAGUCCUGUGCUACACAUCGUAUGUACCGAAUCGGAAAGGGAAAGGAAAGGAAAGUAUUAUGUUACGCCGUUCGGAUCUGCACUUCC: -0.606
GCAGGAAGUAAAAACAAAUGGAAAUGCUUCGGAUAGUGGCAGGGGUGGGGGUUGCUAAGGAAAGGGUGGGAUGGGAGUGGGGAAAGAGUU: 0.527
GUCCUGUGCUACACAUCGUAUGUACCGAAUCGGGAAAAAGGGAAAGGGAAAAAAAGGGAAAGUAUUAUGUUACGCCGUUCGGAUCUGCAC: -0.34
UUUUCUGCAUGGACCGUGCCCUAGAAUUUGCCCCUGCCUGCCAUCGCUUCAAAAUCCUCAAGGCAGAAUGUUUAGCAAUGCUGGGUCGUU: -0.178
CUCAAGUCCUGUGCUACACAUCGUAUGUACCGAAUCGGCGGGGCGGGGCGGGGAAAGUAUUAUGUUACGCCGUUCGGAUCUGCACUUCCA: 0.971
CCUCAAGUCCUGUGCUACACAUCGUAUGUACCGAAUCGGAAGGAAGGAAGGGGAAAGUAUUAUGUUACGCCGUUCGGAUCUGCACUUCCA: -0.109

Sample 3 — method: protein binding microarray; form: double-stranded DNA, one strand shown; medium: in vitro; concentration: not given; baseline: not given; reading: higher = stronger binding; endpoint: E-score
Target: Histone acetyltransferase KAT6A, winged helix 1, GST fusion (KAT6A, Homo sapiens, UniProt Q92794, residues 1-85)
Setting: 8-mer, flanks averaged, mean of 2 arrays, mostly near background
Target sequence (chain): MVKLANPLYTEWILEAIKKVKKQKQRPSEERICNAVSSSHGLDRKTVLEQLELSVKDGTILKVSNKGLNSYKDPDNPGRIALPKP
AACCTCAC: -0.171
ACGAACTA: -0.199
AAATCAAA: -0.135
ACGGCAGG: 0.317
CCGTTGAC: 0.215
CGCCTAAC: 0.109
GTCCCATA: -0.0491
ACATAAGC: 0.0648
CCGTTTCC: 0.169
CGTTTACA: 0.0683
CTAAACGC: 0.191
CAAACCCA: -0.255
GCGAGGCA: 0.0444
GGATTCAA: -0.186
AGTATAAG: -0.0423
ACCCCACC: -0.0208
ATATAGTG: -0.0236
ACACTTAG: -0.16
CTAGATAC: -0.0373
AGGCAACT: -0.133
ACGGCTCT: 0.291
CGTAGCAA: -0.047
GCTAAAGA: -0.113
AAGTCACT: 0.0654
ACTTTATA: -0.0844

Sample 4 — method: protein-binding microarray; form: double-stranded DNA, one strand shown; medium: in vitro; concentration: 250 nM; setting: 60-bp whole probe; with: salmon DNA 0.4 mg/ml; baseline: random background probes; reading: higher = stronger binding; endpoint: log fluorescence; shared flanks, not repeated: GCCTAGCAC … GTCTTGATTCGCTTGACGCTGCTG
Target: Interferon regulatory factor 7, full length, phosphomimetic (IRF7, Homo sapiens, UniProt Q92985, residues 1-503, S101K/S471D/S472D/S475D/S476D/S477D/S483D/S484D/S487D)
Residues (chain): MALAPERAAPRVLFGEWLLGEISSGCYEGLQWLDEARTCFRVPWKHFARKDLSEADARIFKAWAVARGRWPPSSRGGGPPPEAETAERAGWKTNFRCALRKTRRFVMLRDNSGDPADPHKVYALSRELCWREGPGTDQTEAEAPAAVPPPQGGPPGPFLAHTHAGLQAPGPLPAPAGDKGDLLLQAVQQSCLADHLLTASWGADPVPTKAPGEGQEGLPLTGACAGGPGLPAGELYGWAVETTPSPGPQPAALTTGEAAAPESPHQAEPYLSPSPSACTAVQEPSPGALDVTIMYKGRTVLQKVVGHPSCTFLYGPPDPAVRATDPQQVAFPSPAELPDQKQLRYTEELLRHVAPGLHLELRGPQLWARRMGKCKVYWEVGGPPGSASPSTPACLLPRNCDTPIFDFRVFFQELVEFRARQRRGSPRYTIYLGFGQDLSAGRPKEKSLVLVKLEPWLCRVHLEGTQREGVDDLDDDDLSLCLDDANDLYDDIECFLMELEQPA
TTAGAATTGAGTTTCGATTAGTGCTAG: 7.97 z-score
GAAGGTCTCCTACTGCTGACGTGCTAG: -0.332 z-score
CGGGCTTTCCCGTCCAGGGCGTGCTAG: 0.482 z-score
TTGGTTTTCCTTATTGCTTCGTGCTAG: 1.72 z-score
TTAGGTCTCGGCATCGGTTAGTGCTAG: 0.618 z-score
TTAGATATCGGGTTCCGATTAGTGCTA: 1.05 z-score
TCATTCATGAAGTTTTAAACTGTGCTA: 0.486 z-score
TTACAACTGAGACTGGATTAGTGCTAG: -0.155 z-score
TTAGGTCTCCTTCTCCTTCAGTGCTAG: 0.35 z-score
GAAGATTTCGATTACAAAAAGTGCTAG: 2.69 z-score
GACAGTCTCGGTCTCGGGACGTGCTAG: 0.996 z-score
TACGGTCTCCTTATCCTGACGTGCTAG: 0.477 z-score
GACGGTATCCACTTTCGGGACGTGCTA: 0.552 z-score
TTAAATTTCGGGACTGGATTAGTGCTA: 0.215 z-score
GACGGACTAGGTATCGGGACGTGCTAG: 0.26 z-score
AAAGTTATCACTTCCAAAGTGTGCTAG: 0.365 z-score
TCATCTATTGCTTTCTCACTGTGCTAG: 0.62 z-score
TTAGAACTCGGGTTTCGATTAGTGCTA: 6.95 z-score
GACGGTTACGGGTTTCGGGACGTGCTA: 2.66 z-score
CCCTTATTCTAGCCTCCATTTGTGCTA: 1.23 z-score
GACGGACTGGGGACTGGGGGCGTGCTA: 0.735 z-score
CACTATTTAAGACCTATGCACGTGCTA: 0.626 z-score
GACGGTCTCGGGACTGGGGACGTGCTA: 0.0644 z-score
TTTGGACACAGACACAGGCCGTGCTAG: -0.0603 z-score
TTAGGTTTCGACTTTCGGTTGGTGCTA: 11 z-score

For quick reference, copied from above (sample 4):
TCATTCATGAAGTTTTAAACTGTGCTA: 0.486 z-score
TTACAACTGAGACTGGATTAGTGCTAG: -0.155 z-score
TTAGGTCTCCTTCTCCTTCAGTGCTAG: 0.35 z-score
GAAGATTTCGATTACAAAAAGTGCTAG: 2.69 z-score
GACAGTCTCGGTCTCGGGACGTGCTAG: 0.996 z-score
TACGGTCTCCTTATCCTGACGTGCTAG: 0.477 z-score
GACGGTATCCACTTTCGGGACGTGCTA: 0.552 z-score
TTAAATTTCGGGACTGGATTAGTGCTA: 0.215 z-score
GACGGACTAGGTATCGGGACGTGCTAG: 0.26 z-score
AAAGTTATCACTTCCAAAGTGTGCTAG: 0.365 z-score
TCATCTATTGCTTTCTCACTGTGCTAG: 0.62 z-score
TTAGAACTCGGGTTTCGATTAGTGCTA: 6.95 z-score
